Measured values of several laboratories.
Lines come from different studies, so protocols differ. ± marks the error that the study gave.
B1: DMGDH H109R (Homo sapiens, UniProt Q9UI17); chain ETVIIGGGCVGVSLAYHLAKAGMKDVVLLEKSELTAGSTWHAAGLTTYFHPGINLKKIRYDSIKLYEKLEEETGQVVGFHQPGSIRLATTPVRVDEFKYQMTRTGWHATEQYLIEPEKIQEMFPLLNMNKVLAGLYNPGDGHIDPYSLTMALAAGARKCGALLKYPAPVTSLKARSDGTWDVETPQGSMRANRIVNAAGFWAREVGKMIGLEHPLIPVQHQYVVTSTISEVKALKRELPVLRDLEGSYYLRQERDGLLFGPYESQEKMKVQDSWVTNGVPPGFGKELFESDLDRIMEHIKAAMEMVPVLKKADIINVVNGPITYSPDILPMVGPHQGVRNYWVAIGFGYGIIHAGGVGKYLSDWILHGEPPFDLIELDPNRYGKWTTTQYTEAKARESYGFNNIVGYPKEERFAGRPTQRVSGLYQRLESKCSMGFHAGWEQPHWFYKPGQDTQYRPSFRRTNWFEPVGSEYKQVMQRVAVTDLSPFGKFNIKGQDSIRLLDHLFANVIPKVGFTNISHMLTPKGRVYAELTVSHQSPGEFLLITGSGSELHDLRWIEEEAVKGGYDVEIKNITDELGVLGVAGPQARKVLQKLTSEDLSDDVFKFLQTKSLKVSNIPVTAIRISYTGELGWELYHRREDSVALYDAIMNAGQEEGIDNFGTYAMNALRLEKAFRAWGLEMNCDTNPLEAGLEYFVKLNKPADFIGKQALKQIKAKGLKRRLVCLTLATDDVDPEGNESIWYNGKVVGNTTSGSYSYSIQKSLAFAYVPVQLSEVGQQVEVELLGKNYPAVIIQEPLVLTEPTRNRLQKKGGKDKT
B2: enzyme (Listeria monocytogenes, UniProt Q8Y7B6); chain MSFDVLTINPGSTSTKLAVYQGDKVLFEETVRHTMQELADFNNVQEQFDFRWQVLRRVMDAHGYDVKKLQAVVGRGGLLRPVAGGTYMVTEKMIDDLKENKYGEHASNLGAMLAKKLADELTIPSFIVDPVVVDEMQEIARISGNAFVTRKSIFHALNHKAAGRKIAKELGKDYEKMNFVIAHLGGGISVAAHRQGKAVDVNNALDGDGPFSPERSGSLPMNDFLEACFSGKWTKRELHELIVGRGGMISYLGTNSMLEVEAKVQAGEEKAIEAFDAMAYQVSKEIGACSVVLQGKVDAIILTGGLARSELFTSKIIEQTNWITSVIIEPGEDELEALNSGVQRVLAGLEKEKEY
B3: enzyme (Bacteroides thetaiotaomicron, UniProt Q8A947); chain MIKNIVFDFGGVIVDIDRDKAVQAFIKLGLADADTRLDKYHQTGIFQELEEGKLSADEFRKQLGDLCGRELTMEETKQAWLGFFNEVDLRKLDYILGLRKSYHVYLLSNTNPFVMSWACSPEFSSEGKPLNDYCDKLYLSYQLGHTKPAPEIFDFMIKDSHVIPSETLFVDDGSSNIHIGKELGFETFQPENGADWRQELTVILNS
Chain of UniProt P11388 (whole entry, looked up): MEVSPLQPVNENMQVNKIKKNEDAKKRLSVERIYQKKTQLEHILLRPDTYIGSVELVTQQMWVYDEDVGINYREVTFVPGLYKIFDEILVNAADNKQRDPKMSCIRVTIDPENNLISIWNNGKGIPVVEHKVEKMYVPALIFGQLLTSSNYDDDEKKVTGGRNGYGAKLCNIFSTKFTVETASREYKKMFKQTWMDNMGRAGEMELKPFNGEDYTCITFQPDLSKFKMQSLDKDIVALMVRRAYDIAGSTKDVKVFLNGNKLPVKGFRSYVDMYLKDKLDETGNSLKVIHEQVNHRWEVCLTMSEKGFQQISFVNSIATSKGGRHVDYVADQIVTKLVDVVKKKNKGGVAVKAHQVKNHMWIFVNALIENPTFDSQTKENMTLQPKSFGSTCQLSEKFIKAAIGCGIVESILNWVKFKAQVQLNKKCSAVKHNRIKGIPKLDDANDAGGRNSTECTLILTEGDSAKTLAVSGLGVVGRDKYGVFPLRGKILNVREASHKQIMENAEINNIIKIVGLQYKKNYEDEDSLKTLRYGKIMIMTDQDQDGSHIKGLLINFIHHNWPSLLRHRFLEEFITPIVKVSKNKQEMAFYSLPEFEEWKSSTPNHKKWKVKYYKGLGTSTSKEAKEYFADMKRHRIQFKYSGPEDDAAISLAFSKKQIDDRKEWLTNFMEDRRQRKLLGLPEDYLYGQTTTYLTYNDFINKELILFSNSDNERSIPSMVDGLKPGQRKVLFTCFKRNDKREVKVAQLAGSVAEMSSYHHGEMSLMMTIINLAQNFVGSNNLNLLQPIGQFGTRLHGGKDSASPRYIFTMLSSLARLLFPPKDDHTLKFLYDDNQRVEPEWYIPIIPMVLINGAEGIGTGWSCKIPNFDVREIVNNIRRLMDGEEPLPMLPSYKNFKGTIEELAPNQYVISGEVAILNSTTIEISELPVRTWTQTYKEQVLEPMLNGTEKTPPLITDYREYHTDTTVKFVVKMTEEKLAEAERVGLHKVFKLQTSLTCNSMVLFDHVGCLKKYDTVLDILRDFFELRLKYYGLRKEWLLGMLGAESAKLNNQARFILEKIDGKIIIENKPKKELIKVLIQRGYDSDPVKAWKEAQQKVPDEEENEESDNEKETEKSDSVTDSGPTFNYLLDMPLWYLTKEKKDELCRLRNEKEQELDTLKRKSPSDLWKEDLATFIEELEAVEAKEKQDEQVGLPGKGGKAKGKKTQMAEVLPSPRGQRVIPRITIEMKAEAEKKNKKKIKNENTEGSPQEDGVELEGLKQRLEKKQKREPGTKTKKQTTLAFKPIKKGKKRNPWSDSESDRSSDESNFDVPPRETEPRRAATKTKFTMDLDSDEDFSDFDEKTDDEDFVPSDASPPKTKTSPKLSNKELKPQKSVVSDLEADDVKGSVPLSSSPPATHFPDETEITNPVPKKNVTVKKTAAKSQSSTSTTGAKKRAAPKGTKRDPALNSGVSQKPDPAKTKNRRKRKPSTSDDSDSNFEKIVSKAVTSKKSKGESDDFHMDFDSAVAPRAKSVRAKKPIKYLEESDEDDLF

Under “AUC(0-24) at steady state”, `COC(=O)Nc1c(N)nc(-c2nn(Cc3ccccc3F)c3ncc(F)cc23)nc1N` is recorded as 6430 ng·h/mL (healthy male humans, plasma; oral, 10 mg once daily, phase I DDI study, without sildenafil).
For `B1 (DMGDH H109R)`, the Km was 2550 µM (CN(C)CC(=O)O; steady-state kinetics; pH 7.5, 25 °C, single Km, mutant, no THF, together with: ferricenium hexafluorophosphate 200 µmol/L).
For `COc1cc([C@@H]2c3cc4c(cc3[C@@H](O[C@@H]3O[C@@H]5CO[C@@H](C)O[C@H]5[C@H](O)[C@H]3O)[C@H]3COC(=O)[C@H]23)OCO4)cc(OC)c1O`, the inhibition was 31.8% (TOP2A (Homo sapiens, UniProt P11388); DNA decatenation, inhibitor, gel-based decatenation; 31.25 µM).
`Fc1ccccc1Cc1nc(-c2nc(C(F)(F)F)n[nH]2)cn2ccnc12` — result for “subjects with nervous system TEAEs”: 14.3% (healthy human subjects, both sexes; oral, 10 mg, fasted).
`HY6-F9 chimeric IgG1 T307Q/Q311V/A378V (Homo sapiens)` has a Kd of 1.97 ± 0.04 nM (FCGRT/B2M FcRn (Homo sapiens); BLI).
For `B2 (enzyme)`, the kcat was 0.112 ± 0.0283 s⁻¹ (CCC(CC)C(=O)O; steady-state kinetics; pH 7.5, 37 °C).
`B3 (enzyme)` gave a kcat of 0.016 ± 0.001 s⁻¹ (Nc1c(NC[C@H](O)[C@H](O)[C@H](O)COP(=O)(O)O)[nH]c(=O)[nH]c1=O; steady-state kinetics; pH 7.5, 25 °C).
Under “serum level change”, `N#CCC1CCN(c2nc(Nc3ccc(N4CCC(O)CC4)cc3)c3c(=O)[nH]ncc3n2)CC1` is recorded as -1.34 (Olink multiplex, measured: CD163; human, serum; 80 mg, day 15, unit not given; reference: placebo).

Excerpt of the above:
`HY6-F9 chimeric IgG1 T307Q/Q311V/A378V (Homo sapiens)` has a Kd of 1.97 ± 0.04 nM (FCGRT/B2M FcRn (Homo sapiens); BLI).
